Published values pooled from the literature.
A part holds a random share of what one study measured. Positions count from the first letter of the parent shown.

Block 1 — method: protein-binding microarray; form: double-stranded DNA, one strand shown; medium: in vitro; concentration: 0.8 µM; setting: whole 60-bp probe, no competitor; reading: higher = stronger binding; constant ends, left off below: … GTCTTGATTCGCTTGACGCTGCTG
Target: Centromere-binding protein 1, full length, N-terminal tag (CBF1, Saccharomyces cerevisiae, UniProt P17106, residues 1-351)
Sequence of UniProt P17106 (whole entry, looked up): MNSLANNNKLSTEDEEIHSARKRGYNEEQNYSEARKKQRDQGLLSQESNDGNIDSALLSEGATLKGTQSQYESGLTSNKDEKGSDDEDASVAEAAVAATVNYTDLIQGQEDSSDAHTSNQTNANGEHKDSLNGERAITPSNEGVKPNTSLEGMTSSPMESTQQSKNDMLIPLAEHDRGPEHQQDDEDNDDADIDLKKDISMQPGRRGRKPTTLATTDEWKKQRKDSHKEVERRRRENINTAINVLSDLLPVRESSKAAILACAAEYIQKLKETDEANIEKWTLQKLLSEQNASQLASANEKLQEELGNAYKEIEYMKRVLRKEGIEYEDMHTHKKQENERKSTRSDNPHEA
| Sequence | fluorescence intensity [a.u.] |
| --- | --- |
| CTATATTAGATCACTTAGCACGTGAAAAAGAAATTC | 7860 |
| CCTAACTACTATACATACGTGAGATAGCTTCGTACA | 526 |
| GAAGTACGCCTTTTCCGCGTGCGCCGGTCTTTATAG | 592 |
| GAACGGTTTGCACGTGATCTCAATTGATAATTCTAG | 20100 |
| GAAAATGTTTGCGGTCACCCGCGCTGAAAATTTTAG | 582 |
| GAATATCAGTATCATCAGTTGAAACAGTAAGGATAG | 552 |
| CTATCGACAGCTTCACGTGCCATTTGCCATTTTTTC | 2960 |
| GAAAGAACATATGGTGGCGTGTTTCTGCTGCAATAG | 608 |
| GAATGAAGGTATTATCAGTTGAGCAAATATTACTAG | 539 |
| GAATATGTAGTCTACCACATGCTCAAGGTCGATTAG | 673 |
| CTAATAATGAATGAAAACGTGTAAAACAGATAATTC | 581 |
| GAATCGATAGAATGTGACGTTAGTTGTGGTACTTAG | 579 |
| GAATTCAAAACTCATCACCAAAAAAAAAAAATTTAG | 483 |
| GAACTTTTTAGTTAGCACGTTTTCATCTCTTTTTAG | 915 |
| GAATTTGATAATGTGAACACGTCATCATAGATGTAG | 615 |
| CCTAACTACTATATTGACATGATATAGCTTCGTACA | 534 |

Block 2 — target: CCNB1, cyclin fold, Cln2 fusion (human); method: yeast growth competition, sequencing; medium: yeast; setting: weak parent motif; reference: not given; reading: higher = stronger binding
Starting sequence: RB1 docking peptide (human); PKPLKKLRFDIEG
| Change | normalised enrichment score |
| --- | --- |
| K2F | 0.748 |
| R8N | 0.138 |
| R8H | 0.655 |
| L7N | 0.849 |
| P3H | 0.3 |
| G13R | 1.11 |
| K2E | 0.633 |
| P1V | 0.947 |
| G13M | 0.446 |
| D10K | 0.705 |
| L7T | 0.486 |
| L4V | 1.82 |
| I11N | 0.973 |
| F9L | 0.475 |
| I11R | -0.0682 |
| D10P | 0.729 |
| E12C | 0.506 |
| L4Q | 0.00297 |
| E12P | 1 |
| L7Q | 0.417 |
| P3F | -0.246 |
| R8I | 0.51 |
| K6I | 0.401 |
| K6W | 0.375 |
| P3T | 0.304 |

Block 3 — method: DHFR PCA, dose-response; medium: yeast; together with: (+)-ABA, dose series; reading: lower = more sensitive
Target: ABI1, truncated, D143A, DHFR fusion (Arabidopsis thaliana, UniProt P49597)
Setting: Hill fit, not affinity, not high confidence
Starting sequence: PYL1, truncated, DHFR fusion (Arabidopsis thaliana, UniProt Q8VZS8); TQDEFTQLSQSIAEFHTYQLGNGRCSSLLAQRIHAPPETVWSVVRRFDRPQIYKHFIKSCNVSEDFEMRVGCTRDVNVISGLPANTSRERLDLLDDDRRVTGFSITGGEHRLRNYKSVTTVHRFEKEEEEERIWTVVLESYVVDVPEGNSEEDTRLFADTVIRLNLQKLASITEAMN
| Change | ABA EC50 [µM] |
| --- | --- |
| V76K | 1390 |
| K54G | 0.203 |
| A158K | 4.07 |
| V78M | 78.1 |
| S140R | 736 |
| I33G | 8.06 |
| V44F | 756 |
| F56E | 9.12 |
| L28D | 458 |
| P50E | 6.19 |
| G81F | 217 |
| I105Q | 10.8 |
| F157E | 4.59 |
| S140V | 2.76 |
| C25I | 21.5 |
| I162W | 2.78 |
| W41I | 0.0257 |
| K54Y | 3.57 |
| L169E | 287 |
| S80D | 156 |
| F56D | 2.37 |
| R45F | 840 |
| A84R | 0.0159 |
| N177M | 1.62 |

Block 4 — method: protein-binding microarray; form: double-stranded DNA, one strand shown; medium: in vitro; concentration: 940 nM top; setting: 60-bp whole probe; together with: salmon DNA 0.4 mg/ml; reference: random background probes; reading: higher = stronger binding; constant ends, left off below: GCCTAGCAC … GTCTTGATTCGCTTGACGCTGCTG
Target: Interferon regulatory factor 5, full length, phosphomimetic (IRF5, Homo sapiens, UniProt Q13568-2, residues 1-514, S451D/S453D/S456D/S462D)
| Sequence | fitted relative affinity |
| --- | --- |
| TTAGGTTTCGACTTTCGGATAGTGCTA | 8.62 z-score |
| TTAGGACTGAGGTATCGGTTAGTGCTA | 2.2 z-score |
| TTAGATATCGGGTTCCGATTAGTGCTA | 0.295 z-score |
| GACGATCTCAGTTTCGTGACGTGCTAG | 1.98 z-score |
| GACGGACTGCTACTTCTGACGTGCTAG | -0.243 z-score |
| GACGGACTGTACTTTCGGGACGTGCTA | 0.939 z-score |
| TTAGATTTCAGTACCGATTAGTGCTAG | 0.746 z-score |
| TTAGCTTTCAGTTTCGATTAGTGCTAG | 9.55 z-score |
| GCCGAACTGAGACTGGAGACGTGCTAG | -0.416 z-score |
| GGTCTTTCCGATTAGTCCCCGTGCTAG | 0.966 z-score |
| GACGATTTTGGGTATCGAGACGTGCTA | 1.32 z-score |
| TTAGATTTCGGGACTGGAGTAGTGCTA | 0.341 z-score |
| TTAGGCATCGGGTATCGGTTAGTGCTA | 2.72 z-score |
| TTAGGACTGGGTCTTGGTTAGTGCTAG | -0.336 z-score |
| GAAAATTTCTTCCTCCCCCTGTGCTAG | 0.182 z-score |
| TTAGGTTTCCTTATCCTTTTGTGCTAG | 1.88 z-score |
| TTAGATTTCGGGACTGAATTAGTGCTA | 0.375 z-score |
| TTAGATCTCAGTCTCGACTAGTGCTAG | 1.58 z-score |
| TTAGGACTAGGGACTGGGTTAGTGCTA | -0.756 z-score |
| GACGGACTGGGTCTCGTGACGTGCTAG | -0.157 z-score |
| TTAGATATCGGGATTGGATTAGTGCTA | -0.0753 z-score |
| GACGATCTCAGGCTGGAGACGTGCTAG | -0.676 z-score |
| TTAGGTATAGGTCTCGGTTAGTGCTAG | 1.76 z-score |
| GTTTTTTGGTTTCTGGTTTAGTGCTAG | 4.84 z-score |
| GACGATTTCAGTGTCGAGACGTGCTAG | 0.318 z-score |

Block 5 — method: RNAcompete; form: RNA; medium: in vitro; concentration: 20 nM; setting: 7-mer, probes averaged, single round; reference: mean of 7-mers; reading: higher = stronger binding
Target: PABPC1L2, full length, GST fusion (mouse, UniProt A0ABA7IW68)
Target sequence (chain): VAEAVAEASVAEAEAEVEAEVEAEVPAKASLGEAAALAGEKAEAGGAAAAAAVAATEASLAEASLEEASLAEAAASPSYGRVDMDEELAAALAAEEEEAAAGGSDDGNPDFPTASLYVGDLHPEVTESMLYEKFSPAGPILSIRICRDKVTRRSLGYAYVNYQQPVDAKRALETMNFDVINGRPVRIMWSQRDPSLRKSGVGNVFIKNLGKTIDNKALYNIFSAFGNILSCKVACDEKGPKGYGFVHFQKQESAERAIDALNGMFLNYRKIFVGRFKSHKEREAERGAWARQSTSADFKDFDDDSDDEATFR
| Sequence | 7-mer Z-score |
| --- | --- |
| GACGCUA | -0.164 |
| ACAGUUG | -0.0881 |
| CGCAUGU | -0.411 |
| ACACAAU | 0.131 |
| UAAUGAC | -0.079 |
| GGUGAGU | -0.316 |
| AGGGCAC | 0.274 |
| AUUACGG | 0.124 |
| CCAGAAA | 1.35 |
| AUACUGC | -0.18 |
| UUCGCAA | -0.173 |
| AACGGAG | -0.012 |
| CUCACAA | 0.122 |
| AGGUGAC | 0.117 |
| CGACAAG | 0.155 |
| AGCUUGU | -0.162 |
| UUUACGG | 0.173 |
| UCCGCGU | -0.479 |
| GCUCUCA | -0.331 |
| UCGAACA | -0.104 |
| CAUAUAG | -0.164 |
| CUGGCUC | -0.144 |
| CAUUGCC | -0.311 |
| CGUUUCU | -0.447 |
| UCCGAGA | -0.115 |

Block 6 — target: MAFG, bZIP domain (human); method: DHFR protein complementation; medium: yeast; reference: wild-type JUN-FOS pair; reading: higher = stronger binding
Setting: single substitutions, most at no-binding floor
Starting sequence: JUN, bZIP domain (human); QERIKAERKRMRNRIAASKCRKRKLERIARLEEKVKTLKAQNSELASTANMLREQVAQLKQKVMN; partner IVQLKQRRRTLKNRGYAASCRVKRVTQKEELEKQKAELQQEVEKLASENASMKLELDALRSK
| Change | binding fitness [natural log] |
| --- | --- |
| A46P | -1.49 |
| T37S | -1.29 |
| I28C | -1.56 |
| E44G | -1.48 |
| S43R | -1.27 |
| Q41T | -1.5 |
| K36S | -1.47 |
| V35F | -1.59 |
| A49W | -1.44 |
| A46L | -1.4 |
| K36I | -1.38 |
| E54A | -1.51 |
| N42I | -1.39 |
| E33L | -1.42 |
| A40S | -1.49 |
| A40G | -1.4 |
| L52Y | -1.5 |

Repeated from above (block 4):
| Sequence | fitted relative affinity |
| --- | --- |
| GACGGACTGTACTTTCGGGACGTGCTA | 0.939 z-score |
| TTAGATTTCAGTACCGATTAGTGCTAG | 0.746 z-score |
| TTAGCTTTCAGTTTCGATTAGTGCTAG | 9.55 z-score |
| GCCGAACTGAGACTGGAGACGTGCTAG | -0.416 z-score |
| GGTCTTTCCGATTAGTCCCCGTGCTAG | 0.966 z-score |
| GACGATTTTGGGTATCGAGACGTGCTA | 1.32 z-score |
| TTAGATTTCGGGACTGGAGTAGTGCTA | 0.341 z-score |
| TTAGGCATCGGGTATCGGTTAGTGCTA | 2.72 z-score |
| TTAGGACTGGGTCTTGGTTAGTGCTAG | -0.336 z-score |
| GAAAATTTCTTCCTCCCCCTGTGCTAG | 0.182 z-score |
| TTAGGTTTCCTTATCCTTTTGTGCTAG | 1.88 z-score |
| TTAGATTTCGGGACTGAATTAGTGCTA | 0.375 z-score |
| TTAGATCTCAGTCTCGACTAGTGCTAG | 1.58 z-score |
| TTAGGACTAGGGACTGGGTTAGTGCTA | -0.756 z-score |
| GACGGACTGGGTCTCGTGACGTGCTAG | -0.157 z-score |
| TTAGATATCGGGATTGGATTAGTGCTA | -0.0753 z-score |
| GACGATCTCAGGCTGGAGACGTGCTAG | -0.676 z-score |
| TTAGGTATAGGTCTCGGTTAGTGCTAG | 1.76 z-score |
| GTTTTTTGGTTTCTGGTTTAGTGCTAG | 4.84 z-score |
